Experimental data gathered from unrelated publications.
Protocols differ between the studies behind these lines. Several values in a cell are separate wells, animals, samples, runs or records. ± marks the error that the study gave.

| Compound | tested on | assay | system | setting | scale | endpoint | result |
| --- | --- | --- | --- | --- | --- | --- | --- |
| N#C[C@@H]1CC(F)(F)CN1C(=O)CNC(=O)c1ccnc2c(NC(=O)C(CCCCNC(=O)CCOCCOCCOCCOCCOCCOCCNC(=O)CN3CCN(CC(=O)[O-])CCN(CC(=O)[O-])CCN(CC(=O)[O-])CC3)NC(=O)CCCc3ccc(I)cc3)cccc12.[68Ga+3] (stereo partly shown) |  |  | human serum | 120 min, 37 °C, 68Ga-labelled |  | radiochemical stability | 97.54 ± 0.6% |
| CCC1C(COc2nccc3cc(C(N)=O)c(OC)cc23)NC(=O)C1F (stereo not shown) |  |  | ICR mice, plasma | intravenous, 1 mg/kg |  | clearance | 70.5 ± 87.5 mL/min/kg |
| C=CC(=O)Nc1cc(Nc2nccc(-c3cn(C)c4ccccc34)n2)c(OC)cc1N(C)CCNC |  |  | human, dried blood spots | 72 h, room temperature, high QC level |  | remaining compound | 64.2% |
| C[N+](C)(CCOCCOCCOCCOCCOCCOCCOCCNC(=S)Nc1ccc(CC2CN(CC(=O)[O-])CCN(CC(=O)[O-])CCN2CC(=O)[O-])cc1)C[c-]1cccc1.[64Cu+2].[Fe+2].c1cc[cH-]c1 (stereo not shown) |  |  | healthy nude mice, blood | intravenous, dose not given |  | weighted blood half-life | 6.7 min |
| COc1cc(N2CCN(C(=O)C3CCCN3)CC2)ccc1Nc1ncc(Cl)c(Nc2ccccc2P(C)(C)=O)n1 (stereo not shown) |  |  | nude mice, NCI-H3122 xenograft | oral, dose not given, day 11 |  | body weight | 23 g and 23.2 g and 24.6 g and 22.6 g and 22.9 g |
| CCCCN1C(=O)c2cccc3c(NCCCCCN4CCOCC4)ccc(c23)C1=O |  |  | dichloromethane |  |  | Stokes shift | 79 nm |
| C=C(NC(=O)c1csc(-c2nc3c(cc2O)-c2nc(cs2)C(=O)NC(C(C)O)C(=O)NC(=C(C)OC)c2nc(cs2)C(=O)NC2c4nc(cs4)C(=O)NC(COC(=O)c4c5c6c(cccc6n4O)COC(=O)C(OC4CC(C)(O)C(N(C)C)C(C)O4)C2OC5)c2nc-3cs2)n1)C(N)=O (stereo not shown) |  |  | female cynomolgus monkey, plasma | intravenous, 3 mg/kg, single dose, infusion |  | Tmax | 21.6 min |
| Nc1ncnc2[nH]c(/C=C/c3ccc([N+](=O)[O-])cc3)nc12 |  | HPLC | solution, dark | before light exposure |  | purity | 100% |
| O=C(Nc1cnccc1-c1ccc([18F])nc1)c1ccnc(NC(=O)C2CC2)c1 |  | ex vivo gamma counting | FVB/NJ mice, both sexes, caudate nucleus | intravenous, 120 min, together with: tariquidar 15 mg/kg iv |  | mean SUV | 0.082 |
| CCCCN1C(=O)c2cccc3c(NCCN4CCOCC4)ccc(c23)C1=O |  |  | DMSO |  |  | Stokes shift | 90 nm |
| OCC1OC(n2cnc3c(NCc4ccc(Br)s4)ncnc32)C(O)C1O (stereo not shown) |  | equilibrium dialysis | mouse plasma | 0.05 µg/mL, 4 h, pH 7.4 |  | fraction unbound | 0.058 |
| CCCCN1C(=O)c2cccc3c(NCCCCCCCCN4CCOCC4)ccc(c23)C1=O |  |  | ethyl acetate |  |  | Stokes shift | 84 nm |
| CNc1cc(N)c(C(N)=O)cn1 |  |  | Han Wistar rats, male, plasma | oral, 30 mg/kg, 0.50 h |  | plasma concentration | 24.7 µM |
| N#C[C@@H]1CC(F)(F)CN1C(=O)CNC(=O)c1ccnc2c(NC(=O)C(N)CCCCNC(=O)CCOCCOCCOCCOCCOCCOCCNC(=O)CN3CCN(CC(=O)[O-])CCN(CC(=O)[O-])CCN(CC(=O)[O-])CC3)cccc12.[68Ga+3] (stereo partly shown) |  |  | human serum | 30 min, 37 °C, 68Ga-labelled |  | radiochemical stability | 99.41 ± 0.5% |
| CC[C@H](C)[C@@H]1NC(=O)[C@H](Cc2ccc(O)cc2)NC(=O)CCCSC[C@@H](C(=O)N(CC(=O)N[C@@H](CC(C)C)C(=O)NCC(N)=O)Cc2ccc(F)cc2)NC(=O)[C@H](CC(N)=O)NC(=O)[C@H](CCC(N)=O)NC1=O |  |  | healthy human, plasma | intranasal, 50 µg every 3 h, after first dose |  | terminal half-life | 87 min |
| CN(O)C(=O)CCC(=O)NCCCN(CCCCN(CCCNC(=O)CCC(=O)N(C)O)C(=O)CCC(=O)N(C)O)C(=O)CCC(=O)N(C)O.[89Zr] |  | radio-TLC | aqueous buffer | 7 d, pH 7.2, 37 °C, 89Zr-labelled complex, together with: NiCl2 10-fold excess |  | intact complex | 99.5 ± 0.5% |
| Cc1cc(NC(=O)C(=O)N2C[C@@H](C)CC[C@@H]2c2ccc3scnc3c2)cnc1N |  |  | mouse orthotopic brain tumour, brain and plasma | oral, 120 mg/kg twice daily | reference: brain over plasma | Kp,uu | ~0.15 |

| Compound | tested on | assay | system | setting | scale | endpoint | result |
| --- | --- | --- | --- | --- | --- | --- | --- |
| CN([O-])C(=O)CN1CCN(CC(=O)N(C)[O-])CCN(Cc2ccccn2)CC1.[89Zr+4] |  |  | mouse, muscle | intravenous, 1 h |  | tracer uptake | 0.86 %ID/g |
| CCCCN1C(=O)c2cccc3c(NCCCCCCCCCCN4CCOCC4)ccc(c23)C1=O |  |  | DMF |  |  | Stokes shift | 81 nm |
| CC1(C)C(/C=C/C2=C(Cl)C(=C/C=C3/N(CCCCCC(=O)O)c4ccccc4C3(C)C)/C[N+](C)(C)C2)=[N+](CCCCCC(=O)O)c2ccccc21 |  |  | water |  |  | Stokes shift | 22 nm |
| Cc1n[nH]c(C)c1CCCOc1cc(C(=O)NCCCCC(NC(=O)CN2CCN(CC(=O)[O-])CCN(CC(=O)[O-])CCN(CC(=O)[O-])CC2)C(=O)NCC2CCC(C(=O)NC(Cc3ccc4ccccc4c3)C(=O)NCCCCC(NC(=O)NC(CCC(=O)O)C(=O)O)C(=O)O)CC2)ccc1F.[177Lu+3] (stereo not shown) |  | radio-HPLC | mouse serum | 8 days, 37 °C |  | radiochemical purity | 89.9 ± 1.58% |
| Cc1nc(N)nc2c1C(=O)N[C@@H](c1ccc(F)cc1-c1cccc(O[11CH3])n1)C2 |  | ex vivo biodistribution | mice, MDA-MB-231 subcutaneous xenograft, kidneys | 60 min post-injection, baseline, vehicle pre-treatment |  | SUV | 1.7 ± 0.2 |
| O=C(N/N=C/c1cc[n+](CC2CC2)c2ccccc12)c1ccc2ccc(C(=O)N/N=C/c3cc[n+](CC4CC4)c4ccccc34)nc2n1 | hp2 hairpin duplex DNA | FRET melting |  | 1 µM, together with: ds26 10 µM |  | ΔTm | 0.8 ± 0.2 °C |
| O=C([O-])CN1CCN(CC(=O)[O-])CCN(CC(CCCc2ccccc2[N+](=O)[O-])N(CC(=O)[O-])CC(=O)[O-])CC1.[90Y+3] (stereo not shown) |  | TLC | human serum | 336 h, pH 7, 37 °C |  | intact radiolabelled complex | 99.9 ± 0.2% |
| CC(C)Cc1ccc(C(C)C(=O)NC(CCCCNC(=O)CCOCCOCCOCCOCCOCCOCCNC(=O)CN2CCN(CC(=O)[O-])CCN(CC(=O)[O-])CCN(CC(=O)[O-])CC2)C(=O)Nc2cccc3c(C(=O)NCC(=O)N4CC(F)(F)C[C@H]4C#N)ccnc23)cc1.[68Ga+3] (stereo partly shown) |  |  | human serum | 120 min, 37 °C, 68Ga-labelled |  | radiochemical stability | 98.67 ± 0.4% |
| CCCC[C@H](NC(=O)CNC(=O)CNC(=O)[C@H](CCCCNC(=O)[C@H](CC(=O)O)NC(=O)C(C)c1ccc(CC(C)C)cc1)NC(=O)CN1CCN(CC(=O)O)CCN(CC(=O)O)CCN(CC(=O)O)CC1)C(=O)N[C@H]1CC(=O)NCCCC[C@@H](C(N)=O)NC(=O)[C@H](Cc2c[nH]c3ccccc23)NC(=O)[C@H](CCCNC(=N)N)NC(=O)[C@@H](Cc2ccccc2)NC(=O)[C@H](Cc2c[nH]cn2)NC1=O (stereo partly shown) [lutetium-177 labelled] |  |  | C57 mice, tumour | intravenous, 0.037 MBq, 0.5 h | reference: liver | tumour-to-tissue ratio | 3.9 |
| Cc1cc(-c2ccc(C(=O)[C@@H]3CCCC[C@H]3C(=O)Nc3cnn4c3C(=O)NCC4)cc2)[nH]n1 |  |  | human, faeces | oral, 200 mg, 0-168 h | reference: dose | cumulative radioactivity recovery | 74.3% and 73.8% and 75.7% and 81.3% |
| O=C(N/N=C/c1cc[n+](Cc2ccccc2)c2ccccc12)C(=O)N/N=C/c1cc[n+](Cc2ccccc2)c2ccccc12 | hp2 hairpin duplex DNA | FRET melting |  | 1 µM, together with: ds26 10 µM |  | ΔTm | 0.8 ± 0.3 °C |
| C/C(N)=N/C(=N\S(=O)(=O)c1ccc(C(F)(F)F)cc1)N1C[C@H](c2ccccc2)C(c2ccc(Cl)cc2)=N1 |  |  | Beagle dog, plasma | oral, 36 mg/kg |  | Tmax | 120 min |
| COc1cccc(OC)c1-c1cc(C(=O)NC2(C(=O)O)C3CC4CC(C3)CC2C4)nn1-c1ccc(C(=O)N(C)CCCN(C)C(=O)[C@H](CCCCNC(=O)[C@H](CC(C)C)NC(=O)C2OC2C(=O)O)NC(=O)CN2CCN(CC(=O)[O-])CCN(CC(=O)[O-])CCN(CC(=O)[O-])CC2)cc1C(C)C.[177Lu+3] (mixture of isomers) |  |  | mouse HT-29 xenograft | 168 h, biodistribution | reference: tumour over stomach | tumour-to-stomach ratio | 24.1 |
| CCc1cnc(NC(=O)c2cc(S(=O)(=O)N3CCOCC3)ccc2N(C)C2CCCC2)s1 |  |  | mouse | 10 mg/kg, 3 doses |  | serum albumin | 3.1 g/dL |
| O=C(Nc1cnccc1-c1ccc([18F])cc1)c1ccnc(NC(=O)C2CC2)c1 |  | ex vivo gamma counting | GSK-3β transgenic mice, late-stage, lung | intravenous, 120 min |  | mean SUV | 0.27 |
| O=C1c2sc(-c3ccc(N4CCC(F)C4)nc3F)nc2CCN1c1cccnc1 (stereo not shown) |  |  | CD1 mouse, brain | i.v., dose not given, 1.25 h |  | concentration | 15.6 ng/g and 10.6 ng/g |
| CC[C@H](C)[C@H](NC(=O)[C@H](Cc1ccc(O)cc1)NC(=O)[C@@H](NC(=O)[C@H](CCCNC(=N)N)NC(=O)[C@@H](N)CC(=O)O)C(C)C)C(=O)N[C@@H](Cc1c[nH]cn1)C(=O)N1CCC[C@H]1C(=O)O |  | LC-MS/MS | Sprague-Dawley rat, both sexes, plasma | subcutaneous, 10 mg/kg/day, day 27, 0.75 h, 45 min |  | plasma concentration | 7.83 ng/mL |

For quick reference, copied from above:
| Compound | tested on | assay | system | setting | scale | endpoint | result |
| --- | --- | --- | --- | --- | --- | --- | --- |
| CCCCN1C(=O)c2cccc3c(NCCN4CCOCC4)ccc(c23)C1=O |  |  | DMSO |  |  | Stokes shift | 90 nm |
| OCC1OC(n2cnc3c(NCc4ccc(Br)s4)ncnc32)C(O)C1O (stereo not shown) |  | equilibrium dialysis | mouse plasma | 0.05 µg/mL, 4 h, pH 7.4 |  | fraction unbound | 0.058 |
| CCCCN1C(=O)c2cccc3c(NCCCCCCCCN4CCOCC4)ccc(c23)C1=O |  |  | ethyl acetate |  |  | Stokes shift | 84 nm |
| CNc1cc(N)c(C(N)=O)cn1 |  |  | Han Wistar rats, male, plasma | oral, 30 mg/kg, 0.50 h |  | plasma concentration | 24.7 µM |
